Measurements collected from several papers.
Every numbered part comes from another study and shows a few of its results, in no order.

Series 1 — technique: protein-binding microarray; molecule type: double-stranded DNA, one strand shown; medium: in vitro; concentration: not given; direction: higher = stronger binding
Target: TATA-box-binding protein 1 (TBP1, Arabidopsis thaliana, UniProt P28147, residues 1-200, full length assumed)
Notes: k-mer, scored over probes, only values ≥0.25
Construct (chain): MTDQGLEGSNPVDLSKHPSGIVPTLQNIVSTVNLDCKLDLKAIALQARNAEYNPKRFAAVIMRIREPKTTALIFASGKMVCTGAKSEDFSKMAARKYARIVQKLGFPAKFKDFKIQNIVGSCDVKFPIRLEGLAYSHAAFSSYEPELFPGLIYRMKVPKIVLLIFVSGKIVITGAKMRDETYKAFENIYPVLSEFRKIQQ
Sequence | E-score
ATAATCC | 0.278
ATAAAGA | 0.37
GGTTATA | 0.415

Series 2 — technique: RNA Bind-n-Seq; molecule type: RNA; medium: in vitro; concentration: 365 nM; baseline: no-protein control; direction: higher = stronger binding
Target: RNA binding protein fox-1 homolog 2, RRM domain, GST-SBP tag (RBFOX2, Homo sapiens, UniProt O43251-10, residues 100-194)
Notes: natural RNA segment, single round, ends assumed
Sequence | RBNS enrichment (R)
GGGAGUUCUACAGUCCGACGAUCUUUUUUUUUUGCAUCAUUUGUCUUUAAUAUUCAUAAUGUCAUGUGCUUAAAAGUGAGCUUGAAACGUGUGCUUACUAUCUCAUCUCUUCCCUAGUCUUAGUAUUGGACGCUGGAAUUCUCGGGUGCCAA | 0.49
GGGAGUUCUACAGUCCGACGAUCGGGUGGGAGUAGGGAGCUAGUUUGUUGAUAAAUAGUUCCCAUUUCCCCAUGGAGAAUUUGACAUACCCUGGACUCCUGUGUGCCUCCUGCCAUCCCUGCACACAGCCUGGUGGAAUUCUCGGGUGCCAA | 0.724
GGGAGUUCUACAGUCCGACGAUCCCCUCCACUCCUUCCUGCCACCUGCUGCUGCUGCUGCUGCUAAUCUUCAGGGCACUGCUGCUGCCUUUAGUCGCUGAGGAAAAAUAAAGACAAAUGCUGCGCCCUUCCCCUGGAAUUCUCGGGUGCCAA | 0.843

Mixed results
Substance | target | assay | test system | setting | how to read | quantity | result
AAGCCGGT | Sal-like protein 4, full length isoform B (SALL4, Homo sapiens, UniProt Q9UJQ4-2, residues 1-616) | universal PBM | double-stranded DNA, one strand shown, in vitro | not given, 8-mer, flanks averaged, mean of replicates | higher = stronger binding | E-score | -0.137
PhoQ, residues 284 288 289 292 302 303 TTCLQL | PhoP, residues 12 14 15 18 19 NMSFL (Escherichia coli, UniProt P23836) | Sort-seq, refers to: YFP reporter | E. coli | PhoQ-PhoP variant library, together with: 10 µM Mg2+ | baseline: high Mg2+ state, higher = stronger signaling | fold induction | 13.2

For quick reference, copied from above (mixed results):
Substance | target | assay | test system | setting | how to read | quantity | result
AAGCCGGT | Sal-like protein 4, full length isoform B (SALL4, Homo sapiens, UniProt Q9UJQ4-2, residues 1-616) | universal PBM | double-stranded DNA, one strand shown, in vitro | not given, 8-mer, flanks averaged, mean of replicates | higher = stronger binding | E-score | -0.137
